Results from different studies.
Compare with care: the assays were run in different laboratories. ± marks the error that the study gave. ≈ marks a conversion by molar mass, not a printed value.

Molecule	test	test system	setting	scale	endpoint	value
Oc1ccc2c3c(cnc2c1)-c1ccc(C(F)(F)F)cc1O[C@@H]3c1ccc(OCCN2CC(CF)C2)cc1		human, healthy female, urine	oral, 400 mg		urinary radioactivity excretion	0.278%
C[C@](N)(Cc1ccc(O)c(O)c1)C(=O)O		supercritical carbon dioxide	5 h, 313 K, 21 MPa, density 850.4 kg/m3		solubility	185 µg/mL (≈ 875 µM)
CC(C)=CCc1c(O)c(CC=C(C)C)c2oc3c(O)ccc(O)c3c(=O)c2c1O		Balb/c nu/nu mice, HT-29 xenograft, tumour tissue	oral, 901 mg/kg xanthones in diet, 2 weeks after implantation		free tumour concentration	110 ± 50 ng/g
CC[C@H](C)[C@@H]1NC(=O)[C@H](Cc2ccc(O)cc2)NC(=O)[C@@H](N)CSSC[C@@H](C(=O)N2CCC[C@H]2C(=O)N[C@@H](CC(C)C)C(=O)NCC(N)=O)NC(=O)[C@H](CC(N)=O)NC(=O)[C@H](CCC(N)=O)NC1=O	microdialysis, radioimmunoassay	knock-out male mice lacking compound, hippocampus extracellular fluid	intranasal, 12 µg		Cmax	3.27 ± 1.19 pg/sample
COc1cc2c(=O)c(-c3ccc(O)cc3)coc2cc1O[C@@H]1O[C@H](CO)[C@@H](O)[C@H](O)[C@H]1O		human, urine	oral, dose not given, 5 h		urine concentration	5.48 µg/mL
NC(=O)N1c2ccccc2C=Cc2ccccc21	shake-flask	PEG400	37 °C		thermodynamic solubility	73.9 ± 4.71 mg/g
CCCC[C@H](NC(=O)CN1CCN(CC(=O)O)CCN(CC(=O)O)CCN(CC(=O)O)CC1)C(=O)N[C@H]1CC(=O)NCCCC[C@@H](C(N)=O)NC(=O)[C@H](Cc2c[nH]c3ccccc23)NC(=O)[C@H](CCCNC(=N)N)NC(=O)[C@@H](Cc2ccccc2)NC(=O)[C@H](Cc2c[nH]cn2)NC1=O [indium-111 labelled]		B16/F1 melanoma C57 mice, kidney	4 h	relative to: 99mTc(CO)3-pz-βAla-Nle-cyclo[Asp-His-D-Phe-Arg-Trp-Lys]-NH2	renal uptake	31.1%
CC(C)NCCCn1c(Sc2cc3c(cc2I)OCO3)nc2c(N)ncnc21	item: free drug	human	intravenous infusion, 40 mg/m^2, day 1	relative to: dose	urinary excretion	1.9%
COC1=CC(=O)C[C@@H](C)[C@]12Oc1c(Cl)c(OC)cc(OC)c1C2=O	shake-flask	polysorbate 80	37 °C		thermodynamic solubility	8.13 ± 0.27 mg/g
COc1cc(/C=C/c2ccc(N)cc2)cc(OC)c1		rat, mammary gland	oral, 40 mg/kg daily for three days, 24 h, total, pooled		concentration	510 ± 10 ng/g
CC(C)(CC(=O)N1CCCC1)NCC(=O)N1C[C@@H](F)C[C@H]1C#N		Chinese type 2 diabetes patients, plasma	oral, 100 mg once daily, multiple doses		Cmax at steady state	256 ng/mL
CNc1nc(Nc2ccc(-n3cnc(C)n3)c(OC)c2)nc2c1CC[C@H]2c1ccc(F)cc1		human, plasma	oral, 1200 mg, single dose, healthy volunteers		AUC(0-inf)	52200 ng·h/mL
COc1cc(OC)c(/C=C/S(=O)(=O)Cc2ccc(OC)c(NCC(=O)O)c2)c(OC)c1		cancer patients, phase I, plasma	oral, 560 mg twice daily, day 1 cycle 1		AUC(0-inf)	9320 ± 6920 ng·h/mL
RIPLEM	substrate, gel electrophoresis	peptide, mouse, PyMT tumour, PyMT tumour tissue extract	5 µM, 16 h, 37 °C, 2% extract, 1 mM ZnCl2		peptide cleavage	< 10%
CCOc1ccc(Cc2cc([C@]34OC[C@](CO)(O3)[C@@H](O)[C@H](O)[C@H]4O)ccc2Cl)cc1		healthy human, normal renal function, urine	oral, 15 mg, 0-96 h	relative to: dose	urinary excretion unchanged	0.821%
C[C@]12CC[C@@H]3c4ccc(O)cc4CC[C@H]3[C@@H]1C[C@@H](O)[C@@H]2O	GC-MS	breast cancer women on NSAI, serum	vaginal, 0.03 mg daily, 3 h, day 28		median serum concentration	0 ng/mL
Cn1c(=O)c2c([nH]c(=O)n2C)n(C)c1=O		human hemodialysis patients, plasma	pre-treatment	relative to: hemodialysis over normal subjects	total plasma concentration ratio	3
CCCC[C@H](NC(C)=O)C(=O)N[C@H]1CCC(=O)NC[C@@H](C(=O)N[C@@H](Cc2c[nH]c3ccccc23)C(N)=O)NC(=O)[C@H](CCCNC(=N)N)NC(=O)[C@@H](Cc2ccccc2)NC(=O)[C@H](Cc2c[nH]cn2)NC1=O		healthy human, both sexes, plasma	subcutaneous, 1.0 mg once daily, day 1, median		Vd/F	106 L

Some of these lines once more:
Molecule	test	test system	setting	scale	endpoint	value
COc1cc(OC)c(/C=C/S(=O)(=O)Cc2ccc(OC)c(NCC(=O)O)c2)c(OC)c1		cancer patients, phase I, plasma	oral, 560 mg twice daily, day 1 cycle 1		AUC(0-inf)	9320 ± 6920 ng·h/mL
